Measured values of several laboratories.
Compare with care: the assays were run in different laboratories. Numbers after ± are the reported error.
CHRM5: Muscarinic acetylcholine receptor M5 (CHRM5, Homo sapiens, UniProt P08912)
UniProt P08912, sequence (whole entry, looked up): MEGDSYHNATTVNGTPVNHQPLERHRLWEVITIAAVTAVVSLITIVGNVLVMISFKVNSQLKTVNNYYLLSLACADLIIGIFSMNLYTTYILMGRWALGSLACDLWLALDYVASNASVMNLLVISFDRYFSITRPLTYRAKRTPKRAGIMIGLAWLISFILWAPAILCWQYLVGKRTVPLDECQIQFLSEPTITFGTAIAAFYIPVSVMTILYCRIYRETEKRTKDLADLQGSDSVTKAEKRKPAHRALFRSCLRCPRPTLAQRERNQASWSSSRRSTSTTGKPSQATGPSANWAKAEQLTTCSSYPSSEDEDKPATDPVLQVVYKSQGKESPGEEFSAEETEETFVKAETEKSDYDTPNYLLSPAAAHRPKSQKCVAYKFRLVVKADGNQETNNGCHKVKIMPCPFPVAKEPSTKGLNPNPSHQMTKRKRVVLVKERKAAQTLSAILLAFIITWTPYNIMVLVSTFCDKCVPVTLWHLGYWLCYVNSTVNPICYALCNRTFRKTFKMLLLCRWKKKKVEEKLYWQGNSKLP
TDP1: Tyrosyl-DNA phosphodiesterase 1 (TDP1, Homo sapiens, UniProt Q9NUW8)
UniProt Q9NUW8, sequence (whole entry, looked up): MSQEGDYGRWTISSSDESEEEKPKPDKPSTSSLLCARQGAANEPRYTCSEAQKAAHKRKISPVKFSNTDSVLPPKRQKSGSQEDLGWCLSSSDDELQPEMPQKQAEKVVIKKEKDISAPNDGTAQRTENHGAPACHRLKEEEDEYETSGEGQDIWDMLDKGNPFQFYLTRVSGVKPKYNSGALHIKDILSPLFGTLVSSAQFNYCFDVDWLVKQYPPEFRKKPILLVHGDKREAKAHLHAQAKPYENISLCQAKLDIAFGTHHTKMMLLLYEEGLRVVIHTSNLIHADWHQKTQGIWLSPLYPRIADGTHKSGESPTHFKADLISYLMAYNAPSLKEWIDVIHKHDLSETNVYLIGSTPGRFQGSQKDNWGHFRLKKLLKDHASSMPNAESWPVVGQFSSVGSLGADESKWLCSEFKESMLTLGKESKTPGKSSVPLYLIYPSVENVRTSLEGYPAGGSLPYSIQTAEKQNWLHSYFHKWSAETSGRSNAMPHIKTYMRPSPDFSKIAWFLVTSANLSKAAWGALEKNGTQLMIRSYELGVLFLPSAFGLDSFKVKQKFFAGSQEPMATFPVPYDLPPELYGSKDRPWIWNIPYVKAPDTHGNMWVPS
NTSR1: Neurotensin receptor type 1 (NTSR1, Homo sapiens, UniProt P30989)
UniProt P30989, sequence (whole entry, looked up): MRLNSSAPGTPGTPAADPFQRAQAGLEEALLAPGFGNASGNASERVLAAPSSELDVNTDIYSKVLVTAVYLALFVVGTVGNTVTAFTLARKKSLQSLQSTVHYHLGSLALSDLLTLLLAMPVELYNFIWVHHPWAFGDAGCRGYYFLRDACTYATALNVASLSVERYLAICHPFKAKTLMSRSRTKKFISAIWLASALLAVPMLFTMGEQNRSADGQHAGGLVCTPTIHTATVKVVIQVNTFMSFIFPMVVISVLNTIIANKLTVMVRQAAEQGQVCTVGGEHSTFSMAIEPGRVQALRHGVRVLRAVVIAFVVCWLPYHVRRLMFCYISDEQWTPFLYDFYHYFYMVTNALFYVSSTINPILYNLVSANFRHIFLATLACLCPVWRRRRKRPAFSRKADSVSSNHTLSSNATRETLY
UniProt Q8TDS7, sequence (whole entry, looked up): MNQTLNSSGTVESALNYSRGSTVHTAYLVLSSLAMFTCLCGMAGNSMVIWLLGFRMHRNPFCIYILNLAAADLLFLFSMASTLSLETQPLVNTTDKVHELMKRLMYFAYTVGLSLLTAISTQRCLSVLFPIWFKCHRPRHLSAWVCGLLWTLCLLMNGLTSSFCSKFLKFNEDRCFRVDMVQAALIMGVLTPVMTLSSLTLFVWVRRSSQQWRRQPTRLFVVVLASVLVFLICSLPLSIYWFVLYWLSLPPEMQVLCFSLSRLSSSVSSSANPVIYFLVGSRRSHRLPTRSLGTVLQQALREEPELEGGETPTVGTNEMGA
UniProt Q9NSD7, sequence (whole entry, unmodified, looked up): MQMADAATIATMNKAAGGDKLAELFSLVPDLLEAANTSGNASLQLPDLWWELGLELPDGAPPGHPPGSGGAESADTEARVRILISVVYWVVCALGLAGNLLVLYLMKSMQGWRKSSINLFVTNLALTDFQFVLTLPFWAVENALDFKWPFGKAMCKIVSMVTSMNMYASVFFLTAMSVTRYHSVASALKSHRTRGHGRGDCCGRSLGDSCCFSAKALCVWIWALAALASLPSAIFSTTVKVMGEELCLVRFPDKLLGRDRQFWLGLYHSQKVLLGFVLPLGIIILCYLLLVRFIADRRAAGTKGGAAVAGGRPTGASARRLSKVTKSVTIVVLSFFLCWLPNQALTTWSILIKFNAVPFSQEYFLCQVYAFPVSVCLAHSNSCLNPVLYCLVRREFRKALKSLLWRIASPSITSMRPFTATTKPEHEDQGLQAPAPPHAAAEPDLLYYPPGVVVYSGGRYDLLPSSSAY
UniProt O09047, sequence (whole entry, looked up): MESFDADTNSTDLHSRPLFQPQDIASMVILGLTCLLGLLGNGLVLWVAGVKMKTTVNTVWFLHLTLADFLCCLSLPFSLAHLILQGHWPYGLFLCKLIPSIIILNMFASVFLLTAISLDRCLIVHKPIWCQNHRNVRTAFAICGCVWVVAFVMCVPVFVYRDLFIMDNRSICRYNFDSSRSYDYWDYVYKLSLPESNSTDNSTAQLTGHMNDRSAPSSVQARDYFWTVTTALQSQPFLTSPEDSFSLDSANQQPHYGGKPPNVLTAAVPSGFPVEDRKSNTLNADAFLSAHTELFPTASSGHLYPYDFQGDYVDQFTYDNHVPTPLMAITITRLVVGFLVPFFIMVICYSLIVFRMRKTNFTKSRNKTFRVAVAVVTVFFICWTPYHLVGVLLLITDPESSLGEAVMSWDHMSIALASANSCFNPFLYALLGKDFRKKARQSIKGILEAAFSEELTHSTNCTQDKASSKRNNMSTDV
UniProt Q969F8, sequence (whole entry, unmodified, looked up): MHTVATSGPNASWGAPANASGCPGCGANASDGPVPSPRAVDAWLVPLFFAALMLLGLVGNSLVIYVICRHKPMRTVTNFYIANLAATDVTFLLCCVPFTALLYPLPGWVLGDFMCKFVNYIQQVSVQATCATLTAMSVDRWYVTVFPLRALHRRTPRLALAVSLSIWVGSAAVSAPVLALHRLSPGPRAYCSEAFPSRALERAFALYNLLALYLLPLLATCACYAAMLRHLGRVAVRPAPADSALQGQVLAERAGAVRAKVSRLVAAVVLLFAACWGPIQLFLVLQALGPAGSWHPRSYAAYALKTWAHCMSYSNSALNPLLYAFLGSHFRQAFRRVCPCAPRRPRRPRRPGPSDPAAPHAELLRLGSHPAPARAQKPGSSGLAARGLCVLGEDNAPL
UniProt P20309, sequence (whole entry, looked up): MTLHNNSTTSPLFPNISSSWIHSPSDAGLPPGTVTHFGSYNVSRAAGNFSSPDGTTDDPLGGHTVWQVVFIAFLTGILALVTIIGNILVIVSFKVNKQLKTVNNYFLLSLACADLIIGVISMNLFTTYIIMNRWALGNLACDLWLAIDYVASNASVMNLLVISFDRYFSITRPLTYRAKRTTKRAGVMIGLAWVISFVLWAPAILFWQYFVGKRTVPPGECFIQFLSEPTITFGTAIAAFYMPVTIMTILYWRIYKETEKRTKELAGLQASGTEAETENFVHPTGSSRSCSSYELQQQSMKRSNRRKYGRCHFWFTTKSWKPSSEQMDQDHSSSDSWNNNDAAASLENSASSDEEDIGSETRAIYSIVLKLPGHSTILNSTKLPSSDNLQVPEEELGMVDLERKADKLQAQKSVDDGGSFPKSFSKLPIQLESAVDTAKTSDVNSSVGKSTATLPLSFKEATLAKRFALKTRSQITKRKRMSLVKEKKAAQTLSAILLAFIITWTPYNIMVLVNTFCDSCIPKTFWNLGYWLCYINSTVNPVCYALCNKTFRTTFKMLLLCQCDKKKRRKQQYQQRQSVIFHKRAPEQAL

| Structure (SMILES) | target | assay | test system | conditions | how to read | measurement | result |
| --- | --- | --- | --- | --- | --- | --- | --- |
| CNC(=N)NCCC[C@H](NC(=O)[C@H](CC(C)C)NC(=O)NNC(=O)[C@H](Cc1ccccc1)NC(=O)[C@@H](NC(=O)[C@H](CC(N)=O)NC(=O)[C@@H]1C[C@@H](O)CN1C(=O)[C@@H](Cc1ccc(O)cc1)NC(C)=O)[C@@H](C)O)C(=O)N[C@@H](Cc1c[nH]c2ccccc12)C(N)=O | KiSS-1 receptor (KISS1R, Homo sapiens, UniProt Q969F8, N78A) | inositol phosphate, agonist | HEK293 | – | – | Emax | 67.8% |
| CCCCOc1ccc(C(=O)OCC[N+]2(C)CC=CCC2)cc1 (stereo not drawn) | CHRM5 | – | membranes | 1 µM, 15 h, with: carbachol | reference: control | Emax | 1.48 ± 0.08 fold |
| N#CCOc1ccc(Br)cc1C=NOCc1ccc(-c2nc3cc(-c4ccccc4)ccn3c2Nc2ccc(C(=O)O)cc2)cc1 (mixture of isomers) | TDP1 | enzyme activity, inhibitor | – | 100 µM, unpurified compound | – | inhibition | 62.3% |
| COc1ccc(C2(C(=O)N3CCC(Nc4nc5ccccc5c(=O)[nH]4)CC3)CC2)cc1 | MRGPRD, part with Gi1 (Homo sapiens, UniProt Q8TDS7) | Gi1 dissociation, agonist, BRET2 | – | – | reference: wild type | Emax | 87.8 ± 16.4% |
| CCCCCCOc1ccc(C(=O)OCC[N+]2(C)CC=CCC2)cc1 (stereo not drawn) | CHRM3 (Homo sapiens, UniProt P20309) | – | membranes | 1 µM, 15 h, with: carbachol | reference: control | Emax | 1.14 ± 0.07 fold |
| CC(C)C[C@H](NC(=O)[C@@H](N)[C@@H](C)O)C(=O)N[C@@H](CCC(N)=O)C(=O)N1CCC[C@H]1C(=O)N1CCC[C@H]1C(=O)N[C@@H](C)C(=O)N[C@@H](CO)C(=O)N[C@@H](CO)C(=O)N[C@@H](CCCNC(=N)N)C(=O)N[C@@H](CCCNC(=N)N)C(=O)N[C@@H](CCCNC(=N)N)C(=O)N[C@@H](Cc1c[nH]cn1)C(=O)N[C@@H](Cc1ccccc1)C(=O)N[C@@H](Cc1c[nH]cn1)C(=O)N[C@@H](Cc1c[nH]cn1)C(=O)N[C@@H](C)C(=O)N[C@@H](CC(C)C)C(=O)N1CCC[C@H]1C(=O)N1CCC[C@H]1C(=O)N[C@@H](C)C(=O)N[C@@H](CCCNC(=N)N)C(=O)O | C3a anaphylatoxin chemotactic receptor (C3ar1, Mus musculus, UniProt O09047) | cAMP response, agonist, GloSensor | – | – | reference: TLQP-21 | Emax | 58.4 ± 0.76% |
| O=C(O)c1ccc(Nc2c(-c3ccccc3)nc3ccc(CON=Cc4nc(-c5ccccc5)[nH]c4Cl)cn23)cc1 | TDP1 | enzyme activity, inhibitor | – | 100 µM, unpurified compound | – | inhibition | 51.5% |
| COc1ccccc1C1CCN(c2nc(C3(F)CCC3)nc3c(Cl)cc(N(C)CCO)cc23)CC1 | NTSR1 | β-arrestin recruitment, agonist | HEK-293T | – | – | Emax | 122% |
| CCCCCCOc1ccc(C(=O)OCCN2CC=CCC2)cc1 | CHRM5 | – | membranes | 100 µM, 15 h, with: carbachol | reference: control | Emax | 1.43 ± 0.06 fold |
| COc1ccccc1C1CCN(c2nc(C3(F)CC3)nc3c(Cl)cc(N(C)CCO)cc23)CC1 | NTSR1 | β-arrestin recruitment, agonist | HEK-293T | – | – | Emax | 93.8% |
| C=CCn1c(=O)c2ccccc2n2c(SC3CCOC3=O)nnc12 (stereo not drawn) | CHRM5 | receptor activation, agonist | – | concentration not given, 16 h | – | Emax | 119 ± 10% |
| CCc1cc(O)cc2c(/C=N/NC(=N)NCCc3ccc(Cl)cc3)c[nH]c12 | RXFP3 (Homo sapiens, UniProt Q9NSD7, S159L/S163V) | – | HEK-293T | – | reference: wild type | Emax | 106 ± 7.67% |

Excerpt of the above:
| Structure (SMILES) | target | assay | test system | conditions | how to read | measurement | result |
| --- | --- | --- | --- | --- | --- | --- | --- |
| CNC(=N)NCCC[C@H](NC(=O)[C@H](CC(C)C)NC(=O)NNC(=O)[C@H](Cc1ccccc1)NC(=O)[C@@H](NC(=O)[C@H](CC(N)=O)NC(=O)[C@@H]1C[C@@H](O)CN1C(=O)[C@@H](Cc1ccc(O)cc1)NC(C)=O)[C@@H](C)O)C(=O)N[C@@H](Cc1c[nH]c2ccccc12)C(N)=O | KiSS-1 receptor (KISS1R, Homo sapiens, UniProt Q969F8, N78A) | inositol phosphate, agonist | HEK293 | – | – | Emax | 67.8% |
